Published values gathered from unrelated publications.
A part holds a random share of what one study measured.

Sample 1
Target: Histone acetyltransferase KAT6A, both winged helices, GST fusion (KAT6A, Homo sapiens, UniProt Q92794, residues 1-181)
Technique: protein binding microarray
Molecule type: double-stranded DNA, one strand shown
Sample: in vitro
Tested at: not given
Setting: 8-mer, flanks averaged, mean of 2 arrays, mostly near background
Baseline: not given
Direction: higher = stronger binding
Quantity: E-score
Target sequence (chain): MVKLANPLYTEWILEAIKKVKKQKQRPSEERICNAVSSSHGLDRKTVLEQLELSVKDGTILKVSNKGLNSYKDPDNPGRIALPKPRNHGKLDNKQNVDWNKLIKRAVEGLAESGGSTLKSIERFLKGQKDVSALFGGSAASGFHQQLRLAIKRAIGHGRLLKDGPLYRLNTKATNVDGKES
CGGACATC: 0.195
CGGTGAAA: 0.197
AAAAATTT: 0.0146
TCATCAAA: 0.023
CAAGCGGC: 0.339

Sample 2
Target: Interferon regulatory factor 3, full length, phosphomimetic (IRF3, Homo sapiens, UniProt Q14653, residues 1-427, S386D/S396D/S398D/S402D/T404D/S405D)
Chain of UniProt Q14653 (whole entry, unmodified, looked up): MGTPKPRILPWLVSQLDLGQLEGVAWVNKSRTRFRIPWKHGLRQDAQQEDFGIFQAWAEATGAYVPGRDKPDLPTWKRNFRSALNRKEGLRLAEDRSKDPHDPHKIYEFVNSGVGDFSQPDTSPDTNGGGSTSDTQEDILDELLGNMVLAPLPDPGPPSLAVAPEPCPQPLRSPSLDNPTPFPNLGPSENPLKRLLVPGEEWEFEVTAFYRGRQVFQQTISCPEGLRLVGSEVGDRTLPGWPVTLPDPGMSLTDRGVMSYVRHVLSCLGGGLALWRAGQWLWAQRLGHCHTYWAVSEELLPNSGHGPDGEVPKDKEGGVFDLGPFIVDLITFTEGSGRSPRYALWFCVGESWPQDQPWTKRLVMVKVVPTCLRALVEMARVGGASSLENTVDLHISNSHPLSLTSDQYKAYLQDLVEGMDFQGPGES
Technique: protein-binding microarray
Molecule type: double-stranded DNA, one strand shown
Sample: in vitro
Tested at: 2540 nM top
Setting: 60-bp whole probe
With: salmon DNA 0.4 mg/ml
Baseline: random background probes
Direction: higher = stronger binding
Quantity: fitted relative affinity
Shared flanks, not repeated: GCCTAGCAC … GTCTTGATTCGCTTGACGCTGCTG
GACGGACGGGGGTATCGGGACGTGCTA: -0.0685 z-score
TCAAGTTTTCCTCTGTCACTGTGCTAG: 1.29 z-score
CGAGATCTCCGAGATGCCTTCGTGCTA: -0.363 z-score
TTTGGTATCGGTCTCGGTTAGTGCTAG: 5.09 z-score
TTCGGTATCGGACTGGGTTAGTGCTAG: 2.1 z-score
GACGGTTTCGGGTATCGGGGCGTGCTA: 4.48 z-score

Sample 3
Target: Probable WRKY transcription factor 33, C-terminal DNA-binding domain (WRKY33, Arabidopsis thaliana, UniProt Q8S8P5, residues 346-449)
Technique: DNA-protein interaction ELISA
Molecule type: double-stranded DNA, one strand shown
Sample: in vitro, bacterial lysate
Tested at: not given
Setting: whole dsDNA probe, crude lysate protein
Baseline: highest signal in screen
Direction: higher = stronger binding
Quantity: relative absorbance
Target sequence (chain): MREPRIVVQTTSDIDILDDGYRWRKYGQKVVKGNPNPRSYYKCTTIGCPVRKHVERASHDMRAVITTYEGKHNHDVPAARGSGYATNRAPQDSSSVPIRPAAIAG
AAAAAATTCAGAGCTTCGAGGTTCCGAAAA: 28.9 % of maximum
AAAAAAATATTTGAGCTAGGTTATCAAAAA: 42.4 % of maximum
AAAAAATTTGGTCTTCGTCCTCGCTTAAAA: 91.3 % of maximum
AAAAAACCGATCATCACATATCACTGAAAA: 31.9 % of maximum

Other studies, line by line
PhoQ, residues 284 288 289 292 302 303 SQSLSM
fold induction (PhoP, residues 12 14 15 18 19 SPWRL (Escherichia coli, UniProt P23836); Sort-seq, refers to: YFP reporter; E. coli; PhoQ-PhoP variant library, with: 10 µM Mg2+; baseline: high Mg2+ state, higher = stronger signaling): 0.801

Some of these lines once more (sample 2):
CGAGATCTCCGAGATGCCTTCGTGCTA: -0.363 z-score
TTTGGTATCGGTCTCGGTTAGTGCTAG: 5.09 z-score
